{"data": "Experimental data of several laboratories", "organism": "Acinetobacter baumannii", "note": "Compare with care: the assays were run in different laboratories."}
{"SMILES": "C[C@H]1COc2c(N3CCN(C)CC3)c(F)cc3c(=O)c(C(=O)N[C@@H](CCCNC(=N)N)C(=O)N[C@@H](Cc4ccc(-c5ccccc5)cc4)C(=O)N[C@@H](CCCNC(=N)N)C(=O)N[C@@H](Cc4ccc(-c5ccccc5)cc4)C(=O)N[C@@H](CCCNC(=N)N)C(N)=O)cn1c23", "test": "broth microdilution", "test system": "ATCC 1799", "setting": "18 h, 37 °C", "MIC": "2.5 µM"}
{"SMILES": "COc1cc2c(=O)c(C(=O)NCCNCCO)cn(Cc3ccccc3)c2cc1OCc1cccc(Br)c1", "test system": "ATCC 19606", "scale": "≥80% growth inhibition", "MIC": "0.5 µg/mL"}
{"SMILES": "CC[C@H](C)[C@H](NC(=O)[C@H](CCCN)NC(=O)[C@H](CC(N)=O)NC(=O)[C@H](CC(C)C)NC(=O)[C@H](Cc1ccccc1)NC(=O)[C@H](CCCN)NC(=O)[C@H](CCCCNC(=N)N)NC(=O)[C@H](CC(C)C)NC(=O)[C@H](CC(C)C)NC(=O)[C@H](CCCN)NC(=O)[C@H](CCCCNC(=N)N)NC(=O)[C@H](CC(C)C)NC(=O)CNC(C)=O)C(=O)N[C@@H](CCCN)C(=O)N[C@@H](CCCCNC(=N)N)C(N)=O", "test": "bacterial growth, broth microdilution", "test system": "multidrug-resistant", "MIC": "6.25 µM"}
{"SMILES": "CC(C)C[C@@H]1NC(=O)[C@@H](CC(C)C)NC(=O)[C@H](CCN)NC(=O)[C@@H](NC(=O)[C@H](CCN)NC(=O)[C@@H](N)[C@@H](C)O)CCNC(=O)[C@H]([C@@H](C)O)NC(=O)[C@H](CCN)NC(=O)[C@H](CCN)NC1=O", "test": "broth microdilution", "test system": "NDM-2, NRZ 00687, CAMHB with 0.002% polysorbate-80", "setting": "16 h, 37 °C", "MIC": "> 64 µg/mL"}
{"SMILES": "NCCCC[C@@H]1NC(=O)[C@@H](CCCCN)NC(=O)[C@H](CCCCN)NC(=O)[C@@H](CCCCN)NC(=O)[C@H](Cc2c[nH]c3ccccc23)NC(=O)[C@@H](Cc2c[nH]c3ccccc23)NC(=O)[C@@H](N)CSCc2ccc(cc2)CSC[C@@H](C(N)=O)NC(=O)[C@@H](Cc2c[nH]c3ccccc23)NC(=O)[C@H](Cc2c[nH]c3ccccc23)NC(=O)[C@@H](CCCCN)NC1=O", "test system": "19606", "MIC": "16 µg/mL"}
{"SMILES": "CC(C)C[C@H](NC(=O)[C@H](CCCCN)NC(=O)[C@H](CCCCNC(=O)[C@H](CC(C)C)NC(=O)[C@H](CCCCN)NC(=O)[C@H](CCCCNC(=O)[C@H](CC(C)C)NC(=O)[C@H](CCCCN)NC(=O)[C@H](CCCCNC(=O)[C@H](CC(C)C)NC(=O)[C@@H](N)CCCCN)NC(=O)[C@H](CC(C)C)NC(=O)[C@@H](N)CCCCN)NC(=O)[C@H](CC(C)C)NC(=O)[C@H](CCCCN)NC(=O)[C@H](CCCCNC(=O)[C@H](CC(C)C)NC(=O)[C@@H](N)CCCCN)NC(=O)[C@H](CC(C)C)NC(=O)[C@@H](N)CCCCN)NC(=O)[C@H](CC(C)C)NC(=O)[C@H](CCCCN)NC(=O)[C@H](CCCCNC(=O)[C@H](CC(C)C)NC(=O)[C@H](CCCCN)NC(=O)[C@H](CCCCNC(=O)[C@H](CC(C)C)NC(=O)[C@@H](N)CCCCN)NC(=O)[C@H](CC(C)C)NC(=O)[C@@H](N)CCCCN)NC(=O)[C@H](CC(C)C)NC(=O)[C@H](CCCCN)NC(=O)[C@H](CCCCNC(=O)[C@H](CC(C)C)NC(=O)[C@@H](N)CCCCN)NC(=O)[C@H](CC(C)C)NC(=O)[C@@H](N)CCCCN)C(N)=O", "test": "broth microdilution", "test system": "ATCC 19606", "setting": "37 °C", "MIC": "4 µg/mL"}
{"SMILES": "CCCCCCCCCCCCCC(=O)N[C@H](CCN)C(=O)N[C@H](C(=O)N[C@@H](CCN)C(=O)N[C@@H](CC(C)C)C(=O)N[C@@H](CCN)C(=O)N[C@H](Cc1ccccc1)C(=O)N[C@@H](CC(C)C)C(=O)N[C@@H](CCN)C(=O)N[C@H](Cc1ccc(O)cc1)C(=O)N[C@H](C(=O)N[C@@H](CC(=O)O)C(=O)O)C(C)C)[C@@H](C)O", "test": "broth microdilution", "test system": "BNCC 194496", "MIC": "2 µg/mL"}
{"SMILES": "CC[C@H](C)[C@@H]1NC(=O)[C@@H](CC(C)C)NC(=O)[C@H](CCN)NC(=O)[C@@H](NC(=O)[C@@H](CO)NC(=O)[C@@H](NC(=O)[C@H](CCN)NC(=O)c2ccc(-c3ccccc3)cc2)[C@@H](C)O)CCNC(=O)[C@H](CC(C)C)NC(=O)[C@H](CCN)NC(=O)[C@H](CCN)NC1=O", "MIC": "1 µg/mL"}
{"SMILES": "CC[C@H](C)[C@H](NC(=O)[C@H](CCCCN)NC(=O)[C@H](CC(N)=O)NC(=O)[C@H](CC(C)C)NC(=O)[C@H](Cc1ccccc1)NC(=O)[C@H](CCCCN)NC(=O)[C@H](CCCCNC(=N)N)NC(=O)[C@H](CC(C)C)NC(=O)[C@H](CC(C)C)NC(=O)[C@H](CCCCN)NC(=O)[C@H](CCCCNC(=N)N)NC(=O)[C@H](CC(C)C)NC(=O)CNC(C)=O)C(=O)N[C@@H](CCCCN)C(=O)N[C@@H](CCCCNC(=N)N)C(N)=O", "test": "bacterial growth, broth microdilution", "test system": "multidrug-resistant", "MIC": "6.25 µM"}
{"SMILES": "CC(C)C[C@H](NC(=O)[C@H](Cc1ccc(O)cc1)NC(=O)[C@@H]1CCCN1C(=O)[C@H](CCCNC(=N)N)NC(=O)[C@@H]1CCCN1C(=O)[C@H](CCCCN)NC(=O)[C@H](CC(=O)O)NC(=O)[C@@H]1CCCN1C(=O)[C@H](CCCNC(=N)N)NC(=O)C1(N)CCCCC1)C(=O)N1CCC[C@H]1C(=O)N[C@@H](CCCNC(=N)N)C(=O)N1CCC[C@H]1C(=O)N[C@@H](CCCNC(=N)N)C(=O)N1CCC[C@H]1C(=O)N1CCC[C@H]1C(=O)N[C@@H](CCCNC(=N)N)C(=O)N1CCC[C@H]1C(=O)N[C@H](C(=O)N[C@@H](CCCNC(=N)N)C(=O)N[C@@H](CSCC(N)=O)C(=O)NN)C(C)C", "test": "bacterial growth", "test system": "ATCC 19606, 100% Mueller-Hinton broth", "setting": "90 min, 37 °C, strain ATCC 19606", "MIC": "> 250 µg/mL"}
{"note": "A few entries again:"}
{"SMILES": "COc1cc2c(=O)c(C(=O)NCCNCCO)cn(Cc3ccccc3)c2cc1OCc1cccc(Br)c1", "test system": "ATCC 19606", "scale": "≥80% growth inhibition", "MIC": "0.5 µg/mL"}
